{"data": "Results gathered from unrelated publications", "technique": "steady-state kinetics", "B1": "oxdC T165S (Bacillus subtilis, UniProt O34714); chain MKKQNDIPQPIRGDKGATVKIPRNIERDRQNPDMLVPPETDHGTVSNMKFSFSDTHNRLEKGGYAREVTVRELPISENLASVNMRLKPGAIRELHWHKEAEWAYMIYGSARVTIVDEKGRSFIDDVGEGDLWYFPSGLPHSIQALEEGAEFLLVFDDGSFSENSSFQLTDWLAHTPKEVIAANFGVTKEEISNLPGKEKYIFENQLPGSLKDDIVEGPNGEVPYPFTYRLLEQEPIESEGGKVYIADSTNFKVSKTIASALVTVEPGAMRELHWHPNTHEWQYYISGKARMTVFASDGHARTFNYQAGDVGYVPFAMGHYVENIGDEPLVFLEIFKDDHYADVSLNQWLAMLPETFVQAHLDLGKDFTDVLSKEKHPVVKKKCSK", "B2": "alanine racemase H127A/H166A/H200A (Geobacillus stearothermophilus, UniProt P10724); chain MNDFHRDTWAEVDLDAIYDNVENLRRLLPDDTHIMAVVKANAYGHGDVQVARTALEAGASRLAVAFLDEALALREKGIEAPILVLGASRPADAALAAQQRIALTVFRSDWLEEASALYSGPFPIHFALKMDTGMGRLGVKDEEETKRIVALIERHPHFVLEGLYTAFATADEVNTDYFSYQYTRFLHMLEWLPSRPPLVACANSAASLRFPDRTFNMVRFGIAMYGLAPSPGIKPLLPYPLKEAFSLHSRLVHVKKLQPGEKVSYGATYTAQTEEWIGTIPIGYADGWLRRLQHFHVLVDGQKAPIVGRICMDQCMIRLPGPLPVGTKVTLIGRQGDEVISIDDVARHLETINYEVPCTISYRVPRIFFRHKRIMEVRNAIGRGESSA", "B3": "Tcur_2987 W263S (Thermomonospora curvata, UniProt D1A807); chain ACSEERAAGARPSATQTTGTATEPFHGPHQAGIATPPQAHAVFLGLDLRKGTGRKELGRLMRLLTDDARRLTQGRPALADPEPDLAPLPSRLTFTFGFGPGLFKAAGLEKQRPEGLRPLPPFKVDRLEDRWSGGDLLVQICCDDPITLAHALRMTVKDARAFTRVRWVQRGFRRSPGVQSSGATQRNLMGQLDGTVNPVPGTADFDQAVWVQDGPEWLRGGTTLVLRRIRMELEKSDEADPAGKEFAVGRRLTSGAPLTGRHEHDEPDFDAVDSAGFPVIAENAHIRLAHVDSPRLRMLRRPYNYDEGLTADGRSDAGLLFAAYQADIDRQFIPVQRRLDEGGDLLNLWTTPIGSAVFAIPPGCDENGWIGQGLLG", "B4": "MTRR A129T (Homo sapiens, UniProt Q9UBK8); chain MRRFLLLYATQQGQAKAIAEEICEQAVVHGFSADLHCISESDKYDLKTETAPLVVVVSTTGTGDPPDTARKFVKEIQNQTLPVDFFAHLRYGLLGLGDSEYTYFCNGGKIIDKRLQELGARHFYDTGHTDDCVGLELVVEPWIAGLWPALRKHFRSSRGQEEISGALPVASPASSRTDLVKSELLHIESQVELLRFDDSGRKDSEVLKQNAVNSNQSNVVIEDFESSLTRSVPPLSQASLNIPGLPPEYLQVHLQESLGQEESQVSVTSADPVFQVPISKAVQLTTNDAIKTTLLVELDISNTDFSYQPGDAFSVICPNSDSEVQSLLQRLQLEDKREHCVLLKIKADTKKKGATLPQHIPAGCSLQFIFTWCLEIRAIPKKAFLRALVDYTSDSAEKRRLQELCSKQGAADYSRFVRDACACLLDLLLAFPSCQPPLSLLLEHLPKLQPRPYSCASSSLFHPGKLHFVFNIVEFLSTATTEVLRKGVCTGWLALLVASVLQPNIHASHEDSGKALAPKISISPRTTNSFHLPDDPSIPIIMVGPGTGIAPFIGFLQHREKLQEQHPDGNFGAMWLFFGCRHKDRDYLFRKELRHFLKHGILTHLKVSFSRDAPVGEEEAPAKYVQDNIQLHGQQVARILLQENGHIYVCGDAKNMAKDVHDALVQIISKEVGVEKLEAMKTLATLKEEKRYLQDIWS", "B5": "Paox (Mus musculus, UniProt Q8C0L6); chain MAFPGPRVLVVGSGIAGLGAAQKLCSHRAAPHLRVLEATASAGGRIRSERCFGGVVELGAHWIHGPSQDNPVFQLAAEFGLLGEKELSEENQLVDTGGHVALPSMIWSSSGTSVSLELMTEMARLFYGLIERTREFLNESETPMASVGEFLKKEISQQVASWTEDDEDTRKRKLAILNTFFNIECCVSGTHSMDLVALAPFGEYTVLPGLDCILAGGYQGLTDRILASLPKDTVAFDKPVKTIHWNGSFQEAAFPGETFPVLVECEDGARLPAHHVIVTVPLGFLKEHQDTFFEPPLPAKKAEAIKKLGFGTNNKIFLEFEEPFWEPDCQFIQVVWEDTSPLQDTALSLQDTWFKKLIGFLVQPSFESSHVLCGFIAGLESEFMETLSDEEVLLSLTQVLRRVTGNPQLPAAKSVRRSQWHSAPYTRGSYSYVAVGSTGDDLDLMAQPLPEDGTGTQLQVLFAGEATHRTFYSTTHGALLSGWREADRLVSLWDSQVEQSRPRL", "B6": "Nudt8 (Mus musculus, UniProt Q9CR24); chain MLPDGLSAEDEQRCRQLLARTTARLRSRPAAAAVLVPLCLVRGVPALLYTLRSSRLVGRHKGEVSFPGGKCDPDDQDVIHTALRETQEELGLEVPKEHVWGVLQPVYDREKATIVPVLANVGPLDLQSLRPNLEEVDEVFEMSLAHLLQTQNQGYTHFCQGGHFSYTLPVFLHGPHRVWGLTAVITELTLKLLAPGFYQPSLAVPELPRG", "B7": "TenA_E (Arabidopsis thaliana, UniProt Q9ASY9); chain MEKRGVIDTWIDKHRSIYTAATRHAFVVSIRDGSVDLSSFRTWLGQDYLFVRRFVPFVASVLIRACKDSGESSDMEVVLGGIASLNDEIEWFKREGSKWDVDFSTVVPQRANQEYGRFLEDLMSSEVKYPVIMTAFWAIEAVYQESFAHCLEDGNKTPVELTGACHRWGNDGFKQYCSSVKNIAERCLENASGEVLGEAEDVLVRVLELEVAFWEMSRGGQ", "note": "Each line is one published result; not all experiments were run side by side. Numbers after ± are the reported error."}
{"Substance": "B1 (oxdC T165S)", "substrate": "O=C(O)C(=O)O", "conditions": "pH 4.2, 25 °C", "kcat": "20 ± 1 s⁻¹"}
{"Substance": "protein (Cecembia lonarensis, UniProt K1KZY4)", "substrate": "C[C@@H]1O[C@@H](Oc2ccc([N+](=O)[O-])cc2)[C@@H](O)[C@H](O)[C@H]1O", "conditions": "pH 5.5, 35 °C", "kcat": "1.97 ± 0.09 s⁻¹"}
{"Substance": "B2", "substrate": "C[C@@H](N)C(=O)O", "conditions": "pH 9, room temperature, with: NAD+ 10 mM", "kcat": "0.28 s⁻¹"}
{"Substance": "putA (Bradyrhizobium diazoefficiens, UniProt Q89E26)", "substrate": "O=C(O)[C@@H]1CCC=N1", "conditions": "pH 7.5, 23 °C", "kcat": "3.4 ± 0.1 s⁻¹"}
{"Substance": "B3 (Tcur_2987 W263S)", "substrate": "Nc1c(S(=O)(=O)O)cc(Nc2cccc(S(=O)(=O)CCOS(=O)(=O)O)c2)c2c1C(=O)c1ccccc1C2=O", "conditions": "pH 3, sigmoidal kinetics, with: H2O2 1 mM", "kcat": "51 ± 1 s⁻¹"}
{"Substance": "enzyme (Thermotoga maritima, UniProt Q9WZ18)", "substrate": "Cc1cc2nc3c(=O)[nH]c(=O)nc-3n(C[C@H](O)[C@H](O)[C@H](O)COP(=O)(O)OP(=O)(O)OC[C@H]3O[C@@H](n4cnc5c(N)ncnc54)[C@H](O)[C@@H]3O)c2cc1C", "conditions": "pH 7, 80 °C, apparent, cofactor varied", "kcat": "54 s⁻¹"}
{"Substance": "B4 (MTRR A129T)", "substrate": "CC1=CC(=O)c2ccccc2C1=O", "conditions": "pH 7.5, 37 °C, substoichiometric FMN, with: NADPH", "kcat": "0.13 ± 0.004 s⁻¹"}
{"Substance": "B5 (Paox)", "substrate": "c1ccc(CNCCCCNCc2ccccc2)cc1", "conditions": "pH 8.6, 30 °C", "kcat": "0.9 ± 0.03 s⁻¹"}
{"Substance": "B6 (Nudt8)", "substrate": "CC(=O)SCCNC(=O)CCNC(=O)[C@H](O)C(C)(C)COP(=O)(O)OP(=O)(O)OC[C@H]1O[C@@H](n2cnc3c(N)ncnc32)[C@H](O)[C@@H]1OP(=O)(O)O", "conditions": "pH 8.5, with: 2 mM Mn2+", "kcat": "1.93 ± 0.167 s⁻¹"}
{"Substance": "B7 (TenA_E)", "substrate": "Cc1ncc(CN)c(N)n1", "conditions": "pH 7.5, 30 °C, amino-HMP aminohydrolase activity, with: 450 mM glycine betaine", "kcat": "0.00015 ± 7e-06 s⁻¹"}
{"note": "A few entries again:"}
{"Substance": "B4 (MTRR A129T)", "substrate": "CC1=CC(=O)c2ccccc2C1=O", "conditions": "pH 7.5, 37 °C, substoichiometric FMN, with: NADPH", "kcat": "0.13 ± 0.004 s⁻¹"}
{"Substance": "B5 (Paox)", "substrate": "c1ccc(CNCCCCNCc2ccccc2)cc1", "conditions": "pH 8.6, 30 °C", "kcat": "0.9 ± 0.03 s⁻¹"}
